Results collected from several papers.
Every numbered part comes from another study and shows a few of its results, in no order. Substitutions count along the parent as printed.
Chain of UniProt Q9UM73 (whole entry, looked up): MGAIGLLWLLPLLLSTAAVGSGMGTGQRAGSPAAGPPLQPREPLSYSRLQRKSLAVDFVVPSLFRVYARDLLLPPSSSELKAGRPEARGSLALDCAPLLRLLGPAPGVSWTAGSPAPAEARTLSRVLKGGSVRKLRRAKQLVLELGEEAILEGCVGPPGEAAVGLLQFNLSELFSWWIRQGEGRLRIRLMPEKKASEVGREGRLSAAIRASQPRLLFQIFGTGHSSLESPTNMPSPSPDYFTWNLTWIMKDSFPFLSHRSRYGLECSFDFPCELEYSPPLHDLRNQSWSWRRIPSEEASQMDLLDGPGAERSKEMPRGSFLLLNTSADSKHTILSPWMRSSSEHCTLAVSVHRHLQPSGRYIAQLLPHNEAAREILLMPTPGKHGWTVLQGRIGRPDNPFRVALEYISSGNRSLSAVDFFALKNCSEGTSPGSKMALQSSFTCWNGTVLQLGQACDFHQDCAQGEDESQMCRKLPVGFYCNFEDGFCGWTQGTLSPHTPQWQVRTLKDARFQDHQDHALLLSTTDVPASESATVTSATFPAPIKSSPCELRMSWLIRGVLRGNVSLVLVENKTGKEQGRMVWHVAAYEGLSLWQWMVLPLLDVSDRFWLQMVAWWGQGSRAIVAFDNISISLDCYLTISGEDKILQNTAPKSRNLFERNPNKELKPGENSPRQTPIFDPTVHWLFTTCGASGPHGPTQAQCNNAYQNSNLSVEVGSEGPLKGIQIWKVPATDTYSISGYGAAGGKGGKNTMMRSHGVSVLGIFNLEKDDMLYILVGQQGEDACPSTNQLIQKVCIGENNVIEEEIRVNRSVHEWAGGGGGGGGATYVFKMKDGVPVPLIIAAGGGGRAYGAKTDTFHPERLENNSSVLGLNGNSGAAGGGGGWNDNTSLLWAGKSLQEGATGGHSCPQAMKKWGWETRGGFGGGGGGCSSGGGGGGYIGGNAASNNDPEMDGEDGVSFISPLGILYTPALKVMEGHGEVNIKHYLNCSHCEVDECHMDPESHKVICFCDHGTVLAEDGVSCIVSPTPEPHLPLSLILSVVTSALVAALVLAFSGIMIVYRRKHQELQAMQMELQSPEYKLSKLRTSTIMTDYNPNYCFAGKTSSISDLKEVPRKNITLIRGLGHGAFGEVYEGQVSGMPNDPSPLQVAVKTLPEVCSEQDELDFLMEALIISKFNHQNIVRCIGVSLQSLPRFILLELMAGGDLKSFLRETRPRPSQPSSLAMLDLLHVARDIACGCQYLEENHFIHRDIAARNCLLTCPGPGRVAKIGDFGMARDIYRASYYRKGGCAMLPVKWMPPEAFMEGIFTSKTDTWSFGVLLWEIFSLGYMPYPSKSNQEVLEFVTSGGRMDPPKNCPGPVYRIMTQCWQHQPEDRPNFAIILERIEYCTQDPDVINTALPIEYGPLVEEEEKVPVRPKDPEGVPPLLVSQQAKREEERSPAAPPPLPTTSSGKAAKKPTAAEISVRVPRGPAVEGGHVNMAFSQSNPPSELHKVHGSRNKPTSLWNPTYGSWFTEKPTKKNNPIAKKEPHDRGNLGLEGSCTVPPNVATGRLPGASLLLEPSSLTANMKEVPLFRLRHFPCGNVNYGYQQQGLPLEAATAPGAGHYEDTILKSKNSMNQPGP

Block 1
Target: CCNE1, cyclin fold, Cln2 fusion (human)
Technique: yeast growth competition, sequencing
Sample: yeast
Notes: strong parent motif
Reference: not given
Reading: higher = stronger binding
Quantity: normalised enrichment score
Parent: viral docking peptide; PGASRRLFGSSAD
Variant = R5A; value = 0.46
Variant = S10A; value = 1.11
Variant = R5K F8L; value = 0.265
Variant = G2A; value = 0.982
Variant = P1A; value = 0.834
Variant = L7A; value = -0.423
Variant = F8A; value = -0.137

Block 2
Target: tungstate, free oxyanion
Technique: microfluidic competitive inhibition
Sample: in vitro, cell-free expressed
Tested at: not given
Notes: derived from inhibition constants, unchanged parent 2230 nM
Reading: lower = stronger binding
Quantity: oxyanion analog dissociation constant
Parent: PafA, mature enzyme, eGFP fusion (Elizabethkingia meningoseptica, UniProt Q9KJX5); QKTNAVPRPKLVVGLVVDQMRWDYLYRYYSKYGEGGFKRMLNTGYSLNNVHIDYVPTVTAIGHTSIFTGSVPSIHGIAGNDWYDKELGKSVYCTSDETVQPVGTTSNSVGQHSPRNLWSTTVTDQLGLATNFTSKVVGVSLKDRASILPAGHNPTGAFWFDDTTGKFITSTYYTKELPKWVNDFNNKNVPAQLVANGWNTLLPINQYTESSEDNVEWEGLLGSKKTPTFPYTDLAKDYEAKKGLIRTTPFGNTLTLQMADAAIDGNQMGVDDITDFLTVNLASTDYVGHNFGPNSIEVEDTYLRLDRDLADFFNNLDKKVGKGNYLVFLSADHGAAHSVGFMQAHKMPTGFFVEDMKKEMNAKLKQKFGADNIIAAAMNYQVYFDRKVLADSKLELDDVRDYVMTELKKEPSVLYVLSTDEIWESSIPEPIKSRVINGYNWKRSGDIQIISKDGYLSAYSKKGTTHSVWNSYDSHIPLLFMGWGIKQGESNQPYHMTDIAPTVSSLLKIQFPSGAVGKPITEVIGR
Variant = G369V; value = 3.34 µM
Variant = T228V; value = 2.33 µM
Variant = M360G; value = 2.26 µM
Variant = M496V; value = 2.72 µM
Variant = S338G; value = 1.78 µM
Variant = D213V; value = 1.2 µM
Variant = P154V; value = 860 nM
Variant = W118G; value = 893 nM

Block 3
Target: UDP-N-acetylglucosamine--peptide N-acetylglucosaminyltransferase 110 kDa subunit (OGT, Homo sapiens, UniProt O15294)
Chain of UniProt O15294 (whole entry, looked up): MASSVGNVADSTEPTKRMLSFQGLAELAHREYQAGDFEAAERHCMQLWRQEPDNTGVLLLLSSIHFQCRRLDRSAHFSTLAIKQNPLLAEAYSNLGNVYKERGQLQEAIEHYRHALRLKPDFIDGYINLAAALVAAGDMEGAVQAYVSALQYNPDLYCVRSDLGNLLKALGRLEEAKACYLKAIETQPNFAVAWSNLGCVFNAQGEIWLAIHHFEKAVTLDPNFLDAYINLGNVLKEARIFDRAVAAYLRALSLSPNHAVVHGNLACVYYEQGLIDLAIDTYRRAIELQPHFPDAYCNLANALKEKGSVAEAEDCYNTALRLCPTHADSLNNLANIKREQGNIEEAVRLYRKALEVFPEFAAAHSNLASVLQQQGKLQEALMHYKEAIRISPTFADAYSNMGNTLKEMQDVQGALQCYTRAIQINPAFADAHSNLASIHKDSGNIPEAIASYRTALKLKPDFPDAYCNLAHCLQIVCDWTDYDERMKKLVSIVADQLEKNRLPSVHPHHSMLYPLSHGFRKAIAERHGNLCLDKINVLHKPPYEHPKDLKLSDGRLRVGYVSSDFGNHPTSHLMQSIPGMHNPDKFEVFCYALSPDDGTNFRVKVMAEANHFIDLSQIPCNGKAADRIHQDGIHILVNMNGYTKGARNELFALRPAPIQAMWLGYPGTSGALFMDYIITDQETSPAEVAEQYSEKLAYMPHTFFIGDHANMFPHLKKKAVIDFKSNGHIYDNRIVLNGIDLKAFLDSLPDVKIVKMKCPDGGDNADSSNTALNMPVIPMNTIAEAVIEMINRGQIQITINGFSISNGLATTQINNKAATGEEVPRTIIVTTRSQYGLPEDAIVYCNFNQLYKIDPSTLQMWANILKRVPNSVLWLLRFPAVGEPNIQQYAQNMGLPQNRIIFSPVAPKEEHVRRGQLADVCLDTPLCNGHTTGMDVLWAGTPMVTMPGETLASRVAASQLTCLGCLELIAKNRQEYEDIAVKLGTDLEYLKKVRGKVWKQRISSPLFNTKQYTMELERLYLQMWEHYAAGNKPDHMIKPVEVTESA
Read-out: binding
Technique: phage display NGS
Molecule type: peptide
Tested at: concentration not given
Notes: panning round 2
Reference: input library
Quantity: enrichment fold change
Molecule = HWFHHTEGWLPQHSR; value = 4.05
Molecule = IPAPHQQGTHHGFIH; value = 6.18
Molecule = FPRWHQLPWPHHVYS; value = 10.5
Molecule = SFLKYQPKYPIVYNV; value = 14.4
Molecule = DSYHHPVKKTTHTH; value = 3
Molecule = QNQPRYFPAYQIVAQ; value = 6.25
Molecule = KGVRETWLPAYTIVY; value = 3.76
Molecule = FLSSFPPKYPIEYET; value = 7.6

Mixed results
SMILES = N/C(=N\[N+](=O)[O-])N/N=C\c1ccc(-c2cccc([N+](=O)[O-])c2)o1; target = ALK tyrosine kinase receptor (ALK, Homo sapiens, UniProt Q9UM73); read-out = enzyme activity; action = inhibitor; tested at = 0.5 µM; reference = control; quantity = remaining activity; value = 93.6%

Excerpt of the above (block 3):
Molecule = QNQPRYFPAYQIVAQ; value = 6.25
Molecule = HWFHHTEGWLPQHSR; value = 4.05
